# Results pooled from the literature.
# Every numbered part comes from another study and shows a few of its results, in no order. “And” joins repeats or separate records; there may be more than shown.

# Sample 1
# Target: Calcium/calmodulin-dependent protein kinase type II subunit alpha (CAMK2A, Homo sapiens, UniProt Q9UQM7)
# Effect on: enzyme activity
# Action: inhibitor
# Concentration: 10 µM
SMILES,inhibition [%]
NC(=O)c1ncn([C@@H]2O[C@H](CO)[C@@H](O)[C@H]2O)n1,0
NCC(=O)N1CCC[C@H]1C(=O)O,-25
CCC(=O)NC[C@@H]1C[C@H]1c1cccc2c1CCO2,-2
OCc1cccc(O)c1,0
C/C=C/C#CC#C[C@@H](O)[C@@H](/C=C/CCCO)O[C@@H]1O[C@H](CO)[C@@H](O)[C@H](O)[C@H]1O,24
Nc1nc2c([nH]c(=O)n2[C@@H]2O[C@H](CO)[C@@H](O)[C@H]2O)c(=O)[nH]1,-2
C=C1C(=O)[C@@]23[C@@H]4OC5O[C@@]2(O)[C@@H](O)[C@@H]2C(C)(C)CC[C@@H](O)[C@]52[C@@H]3CC[C@@H]14,1

# Sample 2
# Compound: C[C@@H]1CN(c2ccc(-c3cc(C(=O)NCCOCCOCCOCCOCCNC(=O)Cn4cc(-c5[nH]cc(C(=O)N[C@@H](CC(N)=O)c6ccc(F)c(Cl)c6)c5-c5ccc(Cl)cc5F)cn4)ccc3F)cc2NC(=O)c2c[nH]c(=O)cc2C(F)(F)F)C[C@H](C)N1C
# Action: degrader
# Time: 24 h
# WDR5/DCAF1: WDR5/DCAF1 (Homo sapiens, UniProt P61964+Q9Y4B6)
# WDR5: WD repeat-containing protein 5 (WDR5, Homo sapiens, UniProt P61964)
target,test,conditions,how to read,remaining protein level
WDR5/DCAF1,HiBiT luminescence,5.15 nM,,106% and 97.5% and 108%
WDR5,"Jess capillary immunoassay, item: WDR5 over vinculin",331 nM,baseline: DMSO,71.6% and 87.4% and 103%
WDR5/DCAF1,HiBiT luminescence,3800 nM,,65.1% and 59.2% and 65.6%
WDR5,"Jess capillary immunoassay, item: WDR5 over vinculin",25.7 nM,baseline: DMSO,108% and 118% and 92.5%
WDR5/DCAF1,HiBiT luminescence,1510 nM,,60% and 60.5% and 55.9%
WDR5,"Jess capillary immunoassay, item: WDR5 over vinculin",11 nM,baseline: DMSO,97.5% and 102% and 117%
WDR5,"Jess capillary immunoassay, item: WDR5 over vinculin",1821 nM,baseline: DMSO,83.3% and 65.4% and 85.5%
WDR5/DCAF1,HiBiT luminescence,34.2 nM,,97.6% and 88.4% and 87.5%

# Sample 3
# Target: Diamine acetyltransferase 1 (Homo sapiens, UniProt P21673)
# Action: inhibitor
# Concentration: 10 µM
# Baseline: control
# Residues (P21673 1-171): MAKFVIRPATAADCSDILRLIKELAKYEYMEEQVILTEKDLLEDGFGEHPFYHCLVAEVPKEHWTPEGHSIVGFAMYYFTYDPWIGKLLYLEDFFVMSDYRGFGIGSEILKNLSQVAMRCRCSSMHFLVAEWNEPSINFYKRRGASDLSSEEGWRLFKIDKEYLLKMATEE
Structure (SMILES),remaining activity [%]
C/C=C(/C)C(=O)OC(=O)/C(C)=C\C,108
C[C@H]1[C@H](C)CC[C@]2(C)CC[C@]3(C)C(=CC[C@@H]4[C@@]5(C)CC[C@H](O)C(C)(C)[C@@H]5CC[C@]43C)[C@H]12,120
OC[C@H]1NC[C@H](O)[C@@H](O)[C@@H]1O,76.3
CCC/C=C1\OC(=O)C2=C1CC[C@H]1[C@H]3C=C4C(=O)O/C(=C\CCC)[C@@]4(CC3)[C@@H]21,92.5
O=C(O)/C=C/c1cccc(O)c1,100
O=C(/C=C/c1ccc(O)c(O)c1/C=C/c1ccc(O)c(O)c1)O[C@H](Cc1ccc(O)c(O)c1)C(=O)O,73.9
O=C1c2c(O)cc(O)cc2O[C@H](c2ccc(O)cc2)[C@H]1O,105
C=C(C)[C@@H]1CC[C@]2(CO)CC[C@]3(C)[C@H](CC[C@@H]4[C@@]5(C)CC[C@H](O)C(C)(C)[C@@H]5CC[C@]43C)[C@@H]12,101
COc1cc(/C=C/C(=O)OC[C@H]2O[C@@H](O[C@@H]3[C@@H](O)[C@H](O)[C@@H](CO)O[C@H]3c3c(OC)cc4oc(-c5ccc(O)cc5)cc(=O)c4c3O)[C@H](O)[C@@H](O)[C@@H]2O)ccc1O,63.2

# Sample 4
# Compound: NC(N)=NC(=O)c1nc(Cl)c(N2CCCCCC2)nc1N
# Effect on: β-arrestin recruitment
# Action: agonist
# Technique: PRESTO-Tango
# Concentration: 10 µM
# Baseline: untreated
target,fold over basal
"P2Y purinoceptor 14 (P2RY14, Homo sapiens, UniProt Q15391)",1.31
"Adhesion G protein-coupled receptor F4 (ADGRF4, Homo sapiens, UniProt Q8IZF3)",1.01
"Chemerin-like receptor 1 (CMKLR1, Homo sapiens, UniProt Q99788)",0.53
"B2 bradykinin receptor (BDKRB2, Homo sapiens, UniProt P30411)",1.07
"Free fatty acid receptor 3 (FFAR3, Homo sapiens, UniProt O14843)",0.65 fold
"Vasoactive intestinal polypeptide receptor 2 (VIPR2, Homo sapiens, UniProt P41587)",0.66 fold
"PTH2R (Homo sapiens, UniProt P49190)",0.94
"Adhesion G protein-coupled receptor E5 (Homo sapiens, UniProt P48960)",0.89
"Proteinase-activated receptor 1 (F2R, Homo sapiens, UniProt P25116)",0.56
"Melatonin receptor type 1A (MTNR1A, Homo sapiens, UniProt P48039)",0.92
"Somatostatin receptor type 4 (SSTR4, Homo sapiens, UniProt P31391)",1.73 fold

# Sample 5
# Structure (SMILES): O=C1NC(c2ccccn2)Sc2ccccc21 (stereo not drawn)
# Effect on: cell-free assay
# Technique: competition with immobilised ligand
# Concentration: 1 µM
target,remaining binding
"Serine/threonine-protein kinase 4 (STK4, Homo sapiens, UniProt Q13043)",81%
"Dual specificity mitogen-activated protein kinase kinase 2 (MAP2K2, Homo sapiens, UniProt P36507)",75%
"Epidermal growth factor receptor (EGFR, Homo sapiens, UniProt P00533, L861Q)",77%
"Uncharacterized serine/threonine-protein kinase SBK3 (SBK3, Homo sapiens, UniProt P0C264)",86%
"Cytoplasmic tyrosine-protein kinase BMX (BMX, Homo sapiens, UniProt P51813)",100%
"Activated CDC42 kinase 1 (TNK2, Homo sapiens, UniProt Q07912)",100%
"TRAF2 and NCK-interacting protein kinase (TNIK, Homo sapiens, UniProt Q9UKE5)",100%
"Serine/threonine-protein kinase BRSK1 (BRSK1, Homo sapiens, UniProt Q8TDC3)",76%
"Phosphatidylinositol 4-phosphate 3-kinase C2 domain-containing subunit beta (PIK3C2B, Homo sapiens, UniProt O00750)",86%
"Serine/threonine-protein kinase NLK (NLK, Homo sapiens, UniProt Q9UBE8)",100%
"Epidermal growth factor receptor (EGFR, Homo sapiens, UniProt P00533, G719S)",82%
"Non-receptor tyrosine-protein kinase TNK1 (TNK1, Homo sapiens, UniProt Q13470)",55%
"BDNF/NT-3 growth factors receptor (NTRK2, Homo sapiens, UniProt Q16620)",87%
"Serine/threonine-protein kinase PAK 2 (PAK2, Homo sapiens, UniProt Q13177)",100%
"Tyrosine-protein kinase ABL1, non-phosphorylated (ABL1, Homo sapiens, UniProt P00519, H396P)",80%
"Receptor-interacting serine/threonine-protein kinase 1 (RIPK1, Homo sapiens, UniProt Q13546)",81%
"Tyrosine-protein kinase ABL1, phosphorylated (ABL1, Homo sapiens, UniProt P00519, Q252H)",73%
"Hepatocyte growth factor receptor (MET, Homo sapiens, UniProt P08581)",68%
"cGMP-dependent protein kinase 1 (PRKG1, Homo sapiens, UniProt Q13976)",100%
"Serine/threonine-protein kinase 3 (STK3, Homo sapiens, UniProt Q13188)",100%
"Ribosomal protein S6 kinase alpha-2, C-terminal kinase domain (RPS6KA2, Homo sapiens, UniProt Q15349)",93%
"Ribosomal protein S6 kinase alpha-4, C-terminal kinase domain (RPS6KA4, Homo sapiens, UniProt O75676)",74%
"Tyrosine-protein kinase Yes (YES1, Homo sapiens, UniProt P07947)",100%
"Serine/threonine-protein kinase PLK2 (PLK2, Homo sapiens, UniProt Q9NYY3)",97%
"Serine/threonine-protein kinase Sgk3 (SGK3, Homo sapiens, UniProt Q96BR1)",100%

# Repeated from above (sample 5):
target,remaining binding
"Epidermal growth factor receptor (EGFR, Homo sapiens, UniProt P00533, L861Q)",77%
"Tyrosine-protein kinase ABL1, non-phosphorylated (ABL1, Homo sapiens, UniProt P00519, H396P)",80%
"Tyrosine-protein kinase Yes (YES1, Homo sapiens, UniProt P07947)",100%
"Serine/threonine-protein kinase PAK 2 (PAK2, Homo sapiens, UniProt Q13177)",100%
"TRAF2 and NCK-interacting protein kinase (TNIK, Homo sapiens, UniProt Q9UKE5)",100%
"Serine/threonine-protein kinase 3 (STK3, Homo sapiens, UniProt Q13188)",100%
"BDNF/NT-3 growth factors receptor (NTRK2, Homo sapiens, UniProt Q16620)",87%
"Tyrosine-protein kinase ABL1, phosphorylated (ABL1, Homo sapiens, UniProt P00519, Q252H)",73%
